Measured values collected from several papers.
Protocols differ between the studies behind these lines. “And” joins repeats or separate records; there may be more than shown. ± gives the spread as reported.

O=C(NS(=O)(=O)c1cccs1)c1cc2ccccc2n1Cc1ccc(Br)c2ccccc12 — half-life (Sprague-Dawley rat, male, plasma; intravenous, 2 mg/kg): 1.43 h
O=C(O)/C=C\c1cc2ccoc2cc1O[C@@H]1O[C@H](CO)[C@@H](O)[C@H](O)[C@H]1O — half-life (rat, plasma; oral, 217 mg/kg Pc extract, dosed as Pc extract): 2.3 ± 0.7 h
CCC1(CC)CC(=O)N(C2c3cc(C(=O)NC4c5ccccc5CC4O)ccc3OC2(C)COC)C(=N)N1 (stereo not shown) — half-life (Wistar Han rat male, plasma): 5.9 ± 0.7 h
O=C(Nc1ccc(OC(F)(F)F)cc1)NC1CCN(C(=O)C2CC2)CC1 — half-life (Sprague-Dawley rat, male, whole blood; oral, 0.1 mg/kg): 6.8 h
CC[C@H](C)[C@@H](C(=O)N[C@@H](CC(C)C)C(=O)N[C@@H](CO)C(=O)N[C@@H](CO)C(=O)N[C@H](C(=O)N[C@@H](CCC(=O)O)C(=O)N[C@H](C(=O)NCC(=O)N[C@@H](CO)C(=O)N[C@@H](CC(N)=O)C(=O)N[C@H](C(=O)N1C[C@H](O)C[C@H]1C(N)=O)[C@@H](C)O)C(C)C)[C@@H](C)O)N(C)C(=O)[C@H](C)NC(=O)CN(C)C(=O)[C@H](Cc1ccccc1)NC(=O)[C@H](CO)NC(=O)[C@H](CO)NC(=O)[C@H](CCCNC(=N)N)NC(=O)[C@H](CCC(N)=O)NC(=O)[C@H](CC(C)C)NC(=O)[C@H](Cc1ccccc1)NC(=O)[C@H](CC(=O)O)NC(=O)[C@H](C)NC(=O)[C@H](CC(C)C)NC(=O)[C@H](CCCNC(=N)N)NC(=O)[C@H](CCC(N)=O)NC(=O)[C@@H](NC(=O)[C@H](C)NC(=O)[C@@H]1CSSC[C@H](NC(=O)[C@H](CCCNC(=N)N)NC(=O)CC[C@H](NC(=O)CCCCCCCCCCCCCCCCCCC(=O)O)C(=O)O)C(=O)N[C@@H](CC(N)=O)C(=O)N[C@@H]([C@@H](C)O)C(=O)N[C@@H](C)C(=O)N[C@@H]([C@@H](C)O)C(=O)N1)[C@@H](C)O — half-life (Sprague-Dawley rat, lean male, plasma; subcutaneous, 30 nmol/kg single dose, vehicle pH 7.0): 35.1 h
C=C1C[C@]2(C(=O)OC)C=C(C(=O)Nc3cccc(C(=O)Nc4ccc(Nc5nccc(-c6cccnc6)n5)c(C)c4)c3)C(=O)[C@H]1C2 — half-life (Wistar rat male, blood plasma; 10 µM): 0.0407 h and 0.0721 h
COc1ccc([C@@H]2CC(=O)c3c(O)cc(O[C@@H]4O[C@H](CO)[C@@H](O)[C@H](O)[C@H]4O[C@@H]4O[C@@H](C)[C@H](O)[C@@H](O)[C@H]4O)cc3O2)cc1O — half-life (LC-MS/MS; Sprague-Dawley rat, male, lean, plasma; intravenous, 4 mg/kg): 13.8 ± 7.26 h
C=C(NC(=O)c1csc(-c2nc3c(cc2O)-c2nc(cs2)C(=O)NC(C(C)O)C(=O)NC(=C(C)OC)c2nc(cs2)C(=O)NC2c4nc(cs4)C(=O)NC(COC(=O)c4c5c6c(cccc6n4O)COC(=O)C(OC4CC(C)(O)C(N(C)C)C(C)O4)C2OC5)c2nc-3cs2)n1)C(N)=O (stereo not shown) — half-life (Sprague-Dawley rat, both sexes, plasma; intravenous infusion, 6 mg/kg single dose): 5.66 h
OC1(C(F)(F)F)CCN(c2nc(Nc3ccnc(C(F)(F)F)c3)nc(-c3cccc(C(F)(F)F)n3)n2)C1 (stereo not shown) — half-life (Sprague-Dawley rat, both sexes, plasma; oral gavage, 5 mg/kg, day 14): 13.9 ± 3.55 h
Cc1nc2cccc(OCC(C)(C)C(=O)NC(C)C)c2c(N)c1C(=O)[O-].[Na+] — half-life (male Sprague-Dawley rat, plasma; oral, 30 mg/kg): 1.33 h
N#Cc1ccnc(N2C(=O)CC[C@H]2C(=O)N(c2cncc(F)c2)[C@H](C(=O)NC2CC(F)(F)C2)c2ccccc2Cl)c1 — half-life (Sprague-Dawley rat, plasma): 8.9 h
COC(=O)[C@@]1(C)C=C(C(=O)Nc2cccc(C(=O)Nc3ccc(Nc4nccc(-c5cccnc5)n4)c(C)c3)c2)C(=O)CC1 — half-life (rat Wistar male, plasma; 1 µM): 0.217 h and 0.205 h
CC[C@H](C)[C@H](NC(=O)[C@H](Cc1ccc(O)cc1)NC(=O)[C@@H](NC(=O)[C@H](CCCNC(=N)N)NC(=O)[C@@H](N)CC(=O)O)C(C)C)C(=O)N[C@@H](Cc1c[nH]cn1)C(=O)N1CCC[C@H]1C(=O)O — half-life (LC-MS/MS; Sprague-Dawley rats, both sexes, plasma; subcutaneous, 10 mg/kg/day, day 0): 0.453 h
C=CC[C@@H]1/C=C(\C)C[C@H](C)C[C@H](OC)[C@H]2O[C@@](O)(C(=O)C(=O)N3CCCC[C@H]3C(=O)O[C@H](/C(C)=C/[C@@H]3CC[C@@H](O)[C@H](OC)C3)[C@H](C)[C@@H](O)CC1=O)[C@H](C)C[C@@H]2OC — half-life (LC-MS/MS; rat, whole blood; intraperitoneal, 0.5 mg/kg single dose): 4.38 ± 0.1 h
CC[C@H](C)[C@@H](C(=O)N[C@@H](CC(C)C)C(=O)N[C@@H](CO)C(=O)N[C@@H](CO)C(=O)N[C@H](C(=O)N[C@@H](CCC(=O)O)C(=O)N[C@H](C(=O)NCC(=O)N[C@@H](CO)C(=O)N[C@@H](CC(N)=O)C(=O)N[C@H](C(=O)N1C[C@H](O)C[C@H]1C(N)=O)[C@@H](C)O)C(C)C)[C@@H](C)O)N(C)C(=O)[C@H](C)NC(=O)CN(C)C(=O)[C@H](Cc1ccccc1)NC(=O)[C@H](CO)NC(=O)[C@H](CO)NC(=O)[C@H](CCCNC(=N)N)NC(=O)[C@H](CCC(N)=O)NC(=O)[C@H](CC(C)C)NC(=O)[C@H](Cc1ccccc1)NC(=O)[C@H](CCCC(=O)O)NC(=O)[C@H](C)NC(=O)[C@H](CC(C)C)NC(=O)[C@H](CCCNC(=N)N)NC(=O)[C@H](CCC(=O)O)NC(=O)[C@@H](NC(=O)[C@H](C)NC(=O)[C@@H]1CSSC[C@H](NC(=O)[C@H](CCCNC(=N)N)NC(=O)CC[C@H](NC(=O)CCCCCCCCCCCCCCCCCCC(=O)O)C(=O)O)C(=O)NCC(=O)N[C@@H]([C@@H](C)O)C(=O)N[C@@H](C)C(=O)N[C@@H]([C@@H](C)O)C(=O)N1)[C@@H](C)O — half-life (Sprague-Dawley rat, lean male, plasma; subcutaneous, 30 nmol/kg single dose, vehicle pH 7.0): > 30 h
COC(=O)[C@@]1(C(C)C)C=C(C(=O)Nc2cccc(C(=O)Nc3ccc(Nc4nccc(-c5cccnc5)n4)c(C)c3)c2)C(=O)CC1 — half-life (rat, blood plasma; 10 µM): 4.79 h

Excerpt of the above:
Cc1nc2cccc(OCC(C)(C)C(=O)NC(C)C)c2c(N)c1C(=O)[O-].[Na+] — half-life (male Sprague-Dawley rat, plasma; oral, 30 mg/kg): 1.33 h
